Measured values of several laboratories.
Lines come from different studies, so protocols differ. “And” joins repeats or separate records; there may be more than shown. ± marks the error that the study gave.
Chain of UniProt Q9UM07 (whole entry, looked up): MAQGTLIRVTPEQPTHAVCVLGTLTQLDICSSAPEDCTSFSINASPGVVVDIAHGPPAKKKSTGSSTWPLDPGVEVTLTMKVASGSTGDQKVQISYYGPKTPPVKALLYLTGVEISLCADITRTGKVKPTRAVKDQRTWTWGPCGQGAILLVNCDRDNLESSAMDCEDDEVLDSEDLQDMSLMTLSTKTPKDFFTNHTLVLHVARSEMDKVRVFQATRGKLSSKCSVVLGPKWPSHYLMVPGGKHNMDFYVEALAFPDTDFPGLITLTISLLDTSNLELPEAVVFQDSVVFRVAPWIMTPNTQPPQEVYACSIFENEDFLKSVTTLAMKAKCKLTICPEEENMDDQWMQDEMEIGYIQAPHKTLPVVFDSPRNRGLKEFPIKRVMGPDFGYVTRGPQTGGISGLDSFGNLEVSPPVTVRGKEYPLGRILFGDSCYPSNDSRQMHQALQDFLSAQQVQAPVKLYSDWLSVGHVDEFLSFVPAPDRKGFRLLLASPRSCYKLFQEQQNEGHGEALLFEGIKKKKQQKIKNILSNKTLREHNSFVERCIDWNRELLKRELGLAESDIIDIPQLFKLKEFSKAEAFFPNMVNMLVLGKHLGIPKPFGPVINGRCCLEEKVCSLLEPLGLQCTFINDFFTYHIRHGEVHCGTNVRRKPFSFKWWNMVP
Chain of UniProt Q8IW41 (whole entry, looked up): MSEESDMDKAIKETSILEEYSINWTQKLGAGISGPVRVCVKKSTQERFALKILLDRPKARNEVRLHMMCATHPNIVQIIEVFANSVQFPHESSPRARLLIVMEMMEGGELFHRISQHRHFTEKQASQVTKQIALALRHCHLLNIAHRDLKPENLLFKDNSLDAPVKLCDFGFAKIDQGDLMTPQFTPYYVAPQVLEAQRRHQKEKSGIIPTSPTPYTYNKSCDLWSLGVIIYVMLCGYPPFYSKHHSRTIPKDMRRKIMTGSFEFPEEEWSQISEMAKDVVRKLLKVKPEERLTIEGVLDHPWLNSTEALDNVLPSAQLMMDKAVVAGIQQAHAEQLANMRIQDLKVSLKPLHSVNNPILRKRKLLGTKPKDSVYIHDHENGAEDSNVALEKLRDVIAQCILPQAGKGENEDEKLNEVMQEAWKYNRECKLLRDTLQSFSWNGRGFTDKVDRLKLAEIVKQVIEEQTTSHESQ
Chain of UniProt Q09013 (whole entry, looked up): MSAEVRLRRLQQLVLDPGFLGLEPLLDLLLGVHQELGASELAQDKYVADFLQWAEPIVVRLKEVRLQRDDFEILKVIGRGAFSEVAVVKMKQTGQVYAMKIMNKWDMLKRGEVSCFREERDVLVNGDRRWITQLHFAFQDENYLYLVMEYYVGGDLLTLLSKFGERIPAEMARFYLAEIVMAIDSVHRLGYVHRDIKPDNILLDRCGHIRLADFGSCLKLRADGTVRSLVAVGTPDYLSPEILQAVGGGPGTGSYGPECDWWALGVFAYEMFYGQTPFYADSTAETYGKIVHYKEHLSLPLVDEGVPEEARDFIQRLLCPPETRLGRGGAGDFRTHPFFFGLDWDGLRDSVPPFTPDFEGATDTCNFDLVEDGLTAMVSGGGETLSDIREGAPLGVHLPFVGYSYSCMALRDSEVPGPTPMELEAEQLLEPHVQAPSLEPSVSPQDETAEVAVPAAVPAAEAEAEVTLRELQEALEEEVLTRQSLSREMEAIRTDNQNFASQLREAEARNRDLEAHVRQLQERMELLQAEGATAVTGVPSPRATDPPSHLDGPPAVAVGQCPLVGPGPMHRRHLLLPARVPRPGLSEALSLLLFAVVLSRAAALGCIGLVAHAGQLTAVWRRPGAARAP
Chain of UniProt P03303 (whole entry, looked up): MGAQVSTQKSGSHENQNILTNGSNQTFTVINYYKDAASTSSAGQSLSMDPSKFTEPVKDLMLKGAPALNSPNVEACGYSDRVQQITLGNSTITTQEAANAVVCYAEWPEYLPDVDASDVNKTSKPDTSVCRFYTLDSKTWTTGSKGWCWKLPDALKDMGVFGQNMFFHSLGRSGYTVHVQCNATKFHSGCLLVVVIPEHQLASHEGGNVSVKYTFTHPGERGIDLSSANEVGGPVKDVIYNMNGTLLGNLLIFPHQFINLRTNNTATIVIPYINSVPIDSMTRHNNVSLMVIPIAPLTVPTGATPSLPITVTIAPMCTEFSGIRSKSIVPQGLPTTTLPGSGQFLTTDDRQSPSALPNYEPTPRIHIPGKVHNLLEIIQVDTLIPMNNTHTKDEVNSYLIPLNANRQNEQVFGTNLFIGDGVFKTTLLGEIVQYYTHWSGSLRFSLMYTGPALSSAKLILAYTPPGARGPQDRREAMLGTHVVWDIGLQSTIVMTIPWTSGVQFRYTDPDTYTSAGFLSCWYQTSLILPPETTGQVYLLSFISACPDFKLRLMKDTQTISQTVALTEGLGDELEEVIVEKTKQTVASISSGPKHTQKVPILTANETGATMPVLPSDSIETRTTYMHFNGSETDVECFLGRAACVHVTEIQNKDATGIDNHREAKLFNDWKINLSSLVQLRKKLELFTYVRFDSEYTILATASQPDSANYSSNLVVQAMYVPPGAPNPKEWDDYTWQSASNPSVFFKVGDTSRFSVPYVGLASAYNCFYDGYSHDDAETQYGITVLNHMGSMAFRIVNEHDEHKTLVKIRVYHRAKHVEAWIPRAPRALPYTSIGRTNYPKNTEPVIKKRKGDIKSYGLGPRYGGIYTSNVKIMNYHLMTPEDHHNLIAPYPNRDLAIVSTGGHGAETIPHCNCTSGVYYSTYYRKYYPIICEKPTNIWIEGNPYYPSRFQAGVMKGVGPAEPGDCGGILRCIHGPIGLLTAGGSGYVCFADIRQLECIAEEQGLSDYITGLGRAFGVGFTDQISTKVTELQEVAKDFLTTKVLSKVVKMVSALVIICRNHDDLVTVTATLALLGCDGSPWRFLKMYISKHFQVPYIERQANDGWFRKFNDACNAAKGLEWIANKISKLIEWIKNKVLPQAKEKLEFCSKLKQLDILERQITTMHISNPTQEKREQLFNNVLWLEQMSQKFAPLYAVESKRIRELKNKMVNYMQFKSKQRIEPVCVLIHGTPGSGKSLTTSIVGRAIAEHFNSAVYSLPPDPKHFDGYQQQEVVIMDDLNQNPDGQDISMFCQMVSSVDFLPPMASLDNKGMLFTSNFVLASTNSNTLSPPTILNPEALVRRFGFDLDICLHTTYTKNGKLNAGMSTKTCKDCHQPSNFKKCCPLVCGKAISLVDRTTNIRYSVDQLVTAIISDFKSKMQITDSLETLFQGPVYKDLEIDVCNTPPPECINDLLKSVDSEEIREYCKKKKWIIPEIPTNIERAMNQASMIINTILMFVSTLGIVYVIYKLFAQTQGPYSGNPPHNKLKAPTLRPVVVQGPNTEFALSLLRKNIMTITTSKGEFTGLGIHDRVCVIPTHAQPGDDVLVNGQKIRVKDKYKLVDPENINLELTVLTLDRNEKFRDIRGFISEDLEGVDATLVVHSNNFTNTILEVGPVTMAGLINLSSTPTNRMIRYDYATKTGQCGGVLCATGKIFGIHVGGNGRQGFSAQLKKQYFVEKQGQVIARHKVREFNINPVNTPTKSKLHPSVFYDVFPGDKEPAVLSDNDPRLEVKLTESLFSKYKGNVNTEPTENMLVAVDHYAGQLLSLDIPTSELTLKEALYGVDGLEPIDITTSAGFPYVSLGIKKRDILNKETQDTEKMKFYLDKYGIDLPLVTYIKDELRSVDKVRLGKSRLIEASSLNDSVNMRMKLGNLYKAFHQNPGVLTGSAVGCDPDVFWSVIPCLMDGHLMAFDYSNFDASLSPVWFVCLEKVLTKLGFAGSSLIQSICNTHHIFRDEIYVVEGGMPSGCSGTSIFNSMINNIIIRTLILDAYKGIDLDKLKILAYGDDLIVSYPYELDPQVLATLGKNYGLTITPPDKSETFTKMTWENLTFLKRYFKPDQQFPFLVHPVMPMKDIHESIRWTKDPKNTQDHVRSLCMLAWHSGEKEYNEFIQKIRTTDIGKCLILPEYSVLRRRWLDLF
Chain of UniProt P42336 (whole entry, looked up): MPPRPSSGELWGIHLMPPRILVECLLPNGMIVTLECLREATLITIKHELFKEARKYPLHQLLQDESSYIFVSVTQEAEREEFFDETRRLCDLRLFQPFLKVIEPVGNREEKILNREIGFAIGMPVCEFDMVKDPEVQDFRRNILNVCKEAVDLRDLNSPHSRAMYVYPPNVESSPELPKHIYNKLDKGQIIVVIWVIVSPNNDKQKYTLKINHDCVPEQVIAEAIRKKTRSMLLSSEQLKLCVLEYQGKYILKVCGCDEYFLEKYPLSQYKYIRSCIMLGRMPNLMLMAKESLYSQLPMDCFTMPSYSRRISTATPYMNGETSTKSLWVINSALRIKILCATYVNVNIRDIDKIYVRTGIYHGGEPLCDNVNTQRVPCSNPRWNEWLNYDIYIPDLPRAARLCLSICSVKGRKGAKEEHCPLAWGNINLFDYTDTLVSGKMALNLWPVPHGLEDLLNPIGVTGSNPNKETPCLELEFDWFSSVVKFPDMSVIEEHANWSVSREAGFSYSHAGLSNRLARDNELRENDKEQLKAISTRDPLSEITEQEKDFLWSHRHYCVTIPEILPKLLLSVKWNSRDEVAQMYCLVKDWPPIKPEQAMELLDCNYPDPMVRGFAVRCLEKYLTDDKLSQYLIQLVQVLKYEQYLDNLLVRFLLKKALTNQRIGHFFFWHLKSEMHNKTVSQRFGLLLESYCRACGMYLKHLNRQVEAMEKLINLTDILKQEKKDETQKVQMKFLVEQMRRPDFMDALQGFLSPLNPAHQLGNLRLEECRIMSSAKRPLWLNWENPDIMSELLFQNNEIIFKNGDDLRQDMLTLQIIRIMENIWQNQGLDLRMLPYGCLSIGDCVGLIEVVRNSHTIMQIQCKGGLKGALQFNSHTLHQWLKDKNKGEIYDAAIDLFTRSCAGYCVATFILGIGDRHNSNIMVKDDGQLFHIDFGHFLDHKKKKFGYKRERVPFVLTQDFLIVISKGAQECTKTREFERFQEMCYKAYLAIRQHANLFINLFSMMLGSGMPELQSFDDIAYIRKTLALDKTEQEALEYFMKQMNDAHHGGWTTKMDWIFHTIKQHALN

SMILES = O=C1NC(=O)c2c1c1cc(F)c[n+]3c1c1c2c2cc(O)ccc2[n]1[Ru-4]312([N]=C=S)[S+]3CC[S+]1CC[S+]2CC3 (centres unmarked); target = Myotonin-protein kinase (DMPK, Homo sapiens, UniProt Q09013); assay = enzyme activity; conditions = 100 nM, human enzyme, added: 10 µM ATP; how to read = baseline: untreated; measurement = remaining activity; value = 112%
SMILES = CN(C)[C@H]1C[C@@]23CC[C@@]4(O2)C(=CC[C@]2(C)[C@@H](c5ccc6ccncc6c5)CC[C@H]24)C=C3[C@@H](O)[C@@H]1O; target = Serine/threonine-protein kinase VRK2 (VRK2, Homo sapiens, UniProt Q86Y07); assay = ATP probe labelling, inhibitor, KiNativ profiling; conditions = 1 µM; measurement = inhibition; value = -15.9%
SMILES = CS(C)(=O)=Nc1ccc(-c2ccc(-c3nc4cc(O[C@@H]5CO[C@H]6[C@@H]5OC[C@H]6O)[nH]c4cc3F)cc2)cc1; target = Phosphatidylinositol 4,5-bisphosphate 3-kinase catalytic subunit alpha isoform, with p85 alpha (PIK3CA, Homo sapiens, UniProt P42336); assay = kinase activity; conditions = 10 µM; measurement = inhibition; value = -2%
SMILES = N[C@H](C(=O)N1CCCC1)C1CCN(c2nccc3c(-c4ncc(Cl)cc4Cl)cccc23)CC1; target = Protein-arginine deiminase type-4 (PADI4, Homo sapiens, UniProt Q9UM07); assay = enzyme activity; conditions = 0.03932 µM, high-affinity site, added: Ca2+ 1.5 mM; measurement = kcat; value = 1.95 s⁻¹ and 1.92 s⁻¹
SMILES = CC(C)[C@H]1NC(=O)C[C@H]2/C=C/CCSSC[C@@H](NC1=O)C(=O)N[C@H](Cc1cccc3ccccc13)C(=O)NCC(=O)O2; target = [Pyruvate dehydrogenase (acetyl-transferring)] kinase isozyme 2, mitochondrial (PDK2, Homo sapiens, UniProt Q15119); assay = enzyme activity, inhibitor; conditions = 10 µM; measurement = inhibition; value = 5.5%
SMILES = [CH3][Ti+2][O]C(=O)c1ccc([S][Au][PH](c2ccccc2)(c2ccccc2)c2ccccc2)cc1.c1cc[cH-]c1.c1cc[cH-]c1; target = MAP kinase-activated protein kinase 5 (MAPKAPK5, Homo sapiens, UniProt Q8IW41); assay = inhibitor, radiometric HotSpot; conditions = 1 µM, added: 10 µM ATP; how to read = baseline: DMSO vehicle; measurement = remaining kinase activity; value = 96.2% and 91.7%
SMILES = C#CCCCCOc1ccc2c(c1)CCCN2C(=O)CCl; target = V-type proton ATPase catalytic subunit A (ATP6V1A, Homo sapiens, UniProt P38606); assay = mass spectrometry profiling; system = H460 cell lysate; conditions = 100 µM over 10 µM, UniProt P38606; how to read = baseline: high over low concentration; measurement = reactivity ratio; value = 0.639
SMILES = Cc1ccccc1/N=N/c1cccc([B-](F)(F)F)c1.[K+]; target = Chymotrypsinogen A (Bos taurus, UniProt P00766); assay = enzyme activity, inhibitor; conditions = added: Suc-AAPF-AMC; how to read = baseline: Ki cis over Ki trans; measurement = switching factor; value = 6.4 ± 0.2
SMILES = O=C(Cc1ccc(Cl)c(Cl)c1)N1CCN(Cc2ccccc2)[C@@H]2CCC[C@H](N3CCCC3)[C@H]21 (relative stereo); target = Kappa-type opioid receptor (OPRK1, Homo sapiens, UniProt P41145); assay = agonist; conditions = 0.3333 h; measurement = Emax; value = 87%
SMILES = CCc1nc2ccc(C(=O)NCCN3CCOCC3)cn2c1N(C)C(=O)C1CCCCC1; target = Acetylcholinesterase (ache, Electrophorus electricus, UniProt O42275); assay = inhibitor; conditions = 5 µM; measurement = activity; value = active
SMILES = CCc1n[nH]c(NC(=O)c2ccc3c(c2)nnn3C)n1; target = Genome polyprotein, 3C protease (rhinovirus B14, UniProt P03303); assay = protease activity, SAMDI-MS; measurement = Hill slope; value = 1.34

Some of these lines once more:
SMILES = CCc1n[nH]c(NC(=O)c2ccc3c(c2)nnn3C)n1; target = Genome polyprotein, 3C protease (rhinovirus B14, UniProt P03303); assay = protease activity, SAMDI-MS; measurement = Hill slope; value = 1.34
